Experimental data pooled from the literature.
A part holds a random share of what one study measured. Substitutions count along the parent as printed.

Study 1
Target: Centromere-binding protein 1, full length, His-tagged (CBF1, Saccharomyces cerevisiae, UniProt P17106, residues 1-351)
Chain of UniProt P17106 (whole entry, looked up): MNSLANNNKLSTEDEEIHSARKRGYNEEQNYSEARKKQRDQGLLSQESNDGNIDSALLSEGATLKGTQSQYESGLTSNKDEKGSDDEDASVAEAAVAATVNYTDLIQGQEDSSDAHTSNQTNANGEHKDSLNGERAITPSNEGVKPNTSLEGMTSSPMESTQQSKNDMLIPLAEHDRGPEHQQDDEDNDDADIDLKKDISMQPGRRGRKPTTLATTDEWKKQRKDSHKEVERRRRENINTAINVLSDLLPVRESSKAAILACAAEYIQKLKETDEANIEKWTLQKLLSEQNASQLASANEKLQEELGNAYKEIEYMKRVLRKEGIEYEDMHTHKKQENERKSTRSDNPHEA
Technique: competition protein-binding microarray
Molecule type: double-stranded DNA, one strand shown
Matrix: in vitro
Tested at: 2 µM
Notes: whole 60-bp probe, lowest competitor level
Added: Pho4 competitor, 0.05 µM
Reading: higher = stronger binding
All sequences stand within: … GTCTTGATTCGCTTGACGCTGCTG
Sequence | fluorescence intensity [a.u.]
TATTCTAGTTAGCGTCACCTGATGCAGAATTGGCGG | 1610
TATGCCCATCCCAAGATCATGCCCGGGAGAGCAAAT | 56.1
GGCCCATGAACCCATCACGTTTTTCTAATGCAGGGC | 498
TCAACTGGTCTAGCCCATGTGTCTTTAGTTTCCAAG | 88.1
CGGGGTTAAGTTTGTAGCGTGGGTGGCTTGCAGCAG | 76.2
CTTCTGTAAATTTGTTACGTGGGTGGACGCGCCCCG | 74.3
CGTCCTAGTGATTGCAAGGTGGGTGCCATGAGGAAG | 80.7
CGCATTATGTTAAGCATTGCCATTGCGGTAACTTCA | 68.7
GTGTGTATACAAAGAAGAGAGGTGTTAGACCAGTAT | 100
CATACCCAACCTTGCGGTGTGGGTGAAGATATTTGT | 57.5
GATGAGTATACTTGGTACGTGCCTACGCAGCCAATA | 78.1
CAGTTTTTAAAATATCACAATTCAGGCGGGTTGCCA | 89.7
AAAGATTTGATAAAGCACGTGTCGGATTAGATGCTT | 1990
AAAGCGGTAATTTGCCAGGTGGGTGCAGATATCTAT | 89.9
ATGGATATATATGGACACGGGACATTATAACAACTT | 469
CTTCTGTAAATTTTTCACGTGCAGTGAAGCGCCCCG | 783

Study 2
Target: ABI1, truncated, D143A, DHFR fusion (Arabidopsis thaliana, UniProt P49597)
Technique: DHFR PCA, dose-response
Matrix: yeast
Notes: Hill fit, mean, not affinity
Added: (+)-ABA, dose series
Reading: lower = more sensitive
Parent: PYL1, truncated, DHFR fusion (Arabidopsis thaliana, UniProt Q8VZS8); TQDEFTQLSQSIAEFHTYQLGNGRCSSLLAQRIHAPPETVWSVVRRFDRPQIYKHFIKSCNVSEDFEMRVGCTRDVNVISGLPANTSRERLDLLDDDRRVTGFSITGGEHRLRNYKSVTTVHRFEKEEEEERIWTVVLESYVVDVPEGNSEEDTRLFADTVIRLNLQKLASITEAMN
Variant | ABA EC50 [µM]
Q19L | 6.18
K116T | 5.36
G107C | 76.9
N22A | 2.36
C72F | 19.7
S26P | 266
D97C | 4.82
S59A | 4.23
F5R | 2.82
Q10M | 1.7
Q51A | 66.8
R111F | 93.9
E147L | 3.32
Q2E | 0.877
V62G | 137
H122S | 72.5
R90C | 9.19

Study 3
Target: RNA binding protein fox-1 homolog 2, RRM domain, GST-SBP tag (RBFOX2, Homo sapiens, UniProt O43251-10, residues 100-194)
Technique: RNA Bind-n-Seq
Molecule type: RNA
Matrix: in vitro
Tested at: 365 nM
Notes: natural RNA segment, single round, ends assumed
Reference: no-protein control
Reading: higher = stronger binding
All sequences stand within: GGGAGUUCUACAGUCCGACGAUC … UGGAAUUCUCGGGUGCCAA
Construct (chain): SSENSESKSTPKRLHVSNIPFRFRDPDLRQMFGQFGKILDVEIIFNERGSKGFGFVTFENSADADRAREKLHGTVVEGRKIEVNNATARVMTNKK
Sequence | RBNS enrichment (R)
CCCAUGGGGGAAGUGCAGGCUCCUUCCUGUGGUGCCUCUUUAUAGCCUCACCACCAUGCUAACACUGAGCAUGGUGAGGAGGAGGAAGCUUUGGCUAGCUAAACAUGUUU | 0.454
UCACUCCCUGAUGACGUGUAGCUGCCCGCUCACUCCAUGUGAAGAAGAGCUCCAGCAGGCUACACAGAGAUGCUCAGCCCUCAGCGCUUGCAGGCUUCCCGUCACGUGUC | 0.356
CUCCUUAAGCCCCUGAAGUUUUAUUGCAUCUGCUAGCACUUGAAUGCUGACUGACAGGCAGAUCCUGAUAUAUCCAAAUUCGAAUUAAUACCAUUUGAAAUGGCAAGUCU | 5.92
UACUGUUGGAGAACAAGAAUGCUACUGUAUUUUACAUCUUUAUUUCUUGGUGAAACAAAAGUUUUAAAAGUAGUUUUAACAACUUUACACUGGAAUGAUUUAGCUUUGUU | 0.449
UAUAUAGCUCUUUGGCUCGUGAACCUAAUUGUAAACUUUCAGGUAUUUUUGUACAAAUAAGGGACUGAUGUUCUGUUUCUUGUUAUUAGAAAUAAACAUUAAUAAAGCGU | 0.414
CCAAUUAUAAGUGUAGCCAUUUUUAAAAAGCAUUUAUAUGACCAGUCUUUUUCCCCUCAACCUGUGGUAUUUGCAGAUGACAACUUUGAAAAUAAAGCAGUCUCGGGCAG | 0.56
GGGGAGGUAGCUUUCUGUAUAAGACUCUGAUUCUAAAGAGAUGAAGACUUGUGUGAAUGUACAAAGGUUUGCAUUGUAGCUGUUAGAACAGCACAGCAGGGAGUACACGA | 0.634
CAUUUACCCAGUGGACAUGAGCGCUGCUGAAUUUCAUAUAAGGGUCUUCACAGAAAAUACAUGUUCCUUCCCCGUGGUUCCUGUACUCAUUUUAACGUGUUGUUUAUUCU | 0.44
CUCUCACCCCAACCCCCCCAAAACUUUGAACCUAAAUAACCCCUCCCCCAUCCUAAUCAGAGUCAGCACAGCUUUCCUGUCAGAGGAUAGGAACACUUGCUCUUUGAGCC | 0.778
AAUGGCUCCUUGAUGGACGGCACCCUCUUCGAUUCCAGGUACUCCCGCAACCACACCUACAAUACCUAUAUCGGGCAGGGUUACAUCAUCCCCGGGAUGGACCAGGGGCU | 0.273
GCAGGUUAGACUUUGGUCUUCACUGCUUAUAGCUGCAUUGGAGGCCAACGUAGCUGAUGCUCAGGGUCAGGCCUCGCCCCUUCGCCGCAGGUCUCAGGAUCGGGGAUAAC | 0.264
UUACUUUACCUCAAGCAGACAGACAUAGGUUUUGAGGCUUGAAUACAUGGCAGUGGAAUACAAGGCCCUCCCUAGCAGCCGCCCCAGGCCUGGAAAGUGGGAGAUUUCAU | 0.293

Study 4
Target: Sal-like protein 4, full length isoform A (SALL4, Homo sapiens, UniProt Q9UJQ4, residues 1-1053)
Chain of UniProt Q9UJQ4 (whole entry, looked up): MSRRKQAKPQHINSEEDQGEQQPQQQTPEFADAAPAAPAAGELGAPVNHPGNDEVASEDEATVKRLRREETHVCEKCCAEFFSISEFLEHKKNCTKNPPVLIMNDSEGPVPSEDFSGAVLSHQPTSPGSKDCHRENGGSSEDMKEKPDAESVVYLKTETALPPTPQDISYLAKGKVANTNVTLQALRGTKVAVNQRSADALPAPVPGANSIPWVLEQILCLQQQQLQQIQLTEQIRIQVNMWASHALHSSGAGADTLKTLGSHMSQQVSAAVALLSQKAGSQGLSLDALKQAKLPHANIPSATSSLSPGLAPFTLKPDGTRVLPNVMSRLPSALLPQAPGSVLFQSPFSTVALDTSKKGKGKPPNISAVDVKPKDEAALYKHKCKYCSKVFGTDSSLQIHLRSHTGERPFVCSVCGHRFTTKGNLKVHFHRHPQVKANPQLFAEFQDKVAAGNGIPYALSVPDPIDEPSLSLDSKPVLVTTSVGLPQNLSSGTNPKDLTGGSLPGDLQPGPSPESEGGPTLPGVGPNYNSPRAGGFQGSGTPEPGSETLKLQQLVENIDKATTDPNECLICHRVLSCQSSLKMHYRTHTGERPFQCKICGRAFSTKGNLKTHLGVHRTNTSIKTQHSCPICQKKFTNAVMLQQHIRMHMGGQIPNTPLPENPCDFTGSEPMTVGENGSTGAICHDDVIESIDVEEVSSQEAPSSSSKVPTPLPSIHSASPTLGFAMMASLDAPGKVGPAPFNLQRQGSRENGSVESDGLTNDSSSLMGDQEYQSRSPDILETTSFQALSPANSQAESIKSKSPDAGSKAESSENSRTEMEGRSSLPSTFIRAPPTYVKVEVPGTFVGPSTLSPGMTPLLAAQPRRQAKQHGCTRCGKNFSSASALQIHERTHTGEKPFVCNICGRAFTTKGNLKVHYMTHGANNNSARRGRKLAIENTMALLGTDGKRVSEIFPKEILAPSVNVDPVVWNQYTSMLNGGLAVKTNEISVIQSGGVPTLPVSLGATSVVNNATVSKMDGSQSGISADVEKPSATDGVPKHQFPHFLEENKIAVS
Technique: universal PBM
Molecule type: double-stranded DNA, one strand shown
Matrix: in vitro
Tested at: 600 nM
Notes: 8-mer, flanks averaged, mean of replicates
Reading: higher = stronger binding
Sequence | E-score
GCTGAAAC | 0.0299
ATCCGACA | -0.0879
CGTGGGAA | -0.133
ATACTTTC | 0.232
AGGGCCAC | -0.305
CCCAATTC | 0.02
ACCGAAAC | -0.135
CGCGGGGC | -0.316
AACGTCTT | 0.109
CTATAAAA | 0.297
ACCCATGA | -0.0854
AGATGCAG | -0.0602
GCATAGGC | 0.0444
ACACTGAA | 0.203
AAAAATTT | 0.364
CCAGAACG | -0.0435

Study 5
Target: Interferon regulatory factor 5, full length, phosphomimetic (IRF5, Homo sapiens, UniProt Q13568-2, residues 1-514, K96S/S451D/S453D/S456D/S462D)
Technique: protein-binding microarray
Molecule type: double-stranded DNA, one strand shown
Matrix: in vitro
Tested at: 250 nM
Notes: 60-bp whole probe
Added: salmon DNA 0.4 mg/ml
Reference: random background probes
Reading: higher = stronger binding
All sequences stand within: GCCTAGCAC … GTCTTGATTCGCTTGACGCTGCTG
Sequence | log fluorescence
TCATGTGTCAGGTTTACTACTGTGCTA | 0.128 z-score
CAGAAAATGGAAACTCGTATGGTGCTA | 1.04 z-score
GACGATTTCAGACTTGAGACGTGCTAG | 0.0907 z-score
TCACCTCTGGGATCCCAGACTGTGCTA | -0.588 z-score
GACGCACTGCTTTTCCTGACGTGCTAG | -0.0697 z-score
GACGGTCTCGGTTTCGGGAGGTGCTAG | 3.03 z-score
ACCTGAGTCCCTATCTCCTCGTGCTAG | -0.522 z-score
CCCTTATTCTAGCCTCCATTTGTGCTA | 0.623 z-score
TTAGGATTCGGTTTCGGTTAGTGCTAG | 9.36 z-score
ATTTGTCCCTATTTAAGAGAGTGCTAG | 0.378 z-score
TTGGGTATCGGTCTCGGTTAGTGCTAG | 6.12 z-score
TTAGATCTCGGGTATCGATTAGTGCTA | 2.85 z-score
TTAGGTTCCGGTTGCGGTTAGTGCTAG | 2.24 z-score
TTGGATATCGGGACTGGATTAGTGCTA | 0.565 z-score
GACGGACTGGACACTGAGGACGTGCTA | -0.491 z-score
GACGGACTGGACTATCGGCACGTGCTA | 0.727 z-score
GACGGTTCCGGTTTCGGGTCGTGCTAG | 6.35 z-score
TTGGGTATCGGGACTGGGTTAGTGCTA | 1.54 z-score
GACGAATTGAGTTTCGAGACGTGCTAG | 5.1 z-score
CAGCCAATCAGGACTCAGGGAGTGCTA | -0.482 z-score
GGAAGCAGTGAGAAGGTGGCGTGCTAG | -0.303 z-score
GACGATTTCAGTCGCGAGACGTGCTAG | 0.89 z-score
